Results gathered from unrelated publications.
Several values in a cell are separate wells, animals, samples, runs or records.
lasR: Transcriptional activator protein LasR (lasR, Pseudomonas aeruginosa, UniProt P25084)
Sequence of UniProt P25084 (whole entry, looked up): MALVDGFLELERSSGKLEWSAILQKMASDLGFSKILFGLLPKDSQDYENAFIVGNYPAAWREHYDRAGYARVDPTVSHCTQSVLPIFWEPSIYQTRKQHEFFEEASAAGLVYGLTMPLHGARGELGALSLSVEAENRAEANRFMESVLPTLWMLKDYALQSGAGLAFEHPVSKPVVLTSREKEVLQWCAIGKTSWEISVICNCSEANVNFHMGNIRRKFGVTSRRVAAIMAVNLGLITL
Sequence of UniProt P43403 (whole entry, looked up): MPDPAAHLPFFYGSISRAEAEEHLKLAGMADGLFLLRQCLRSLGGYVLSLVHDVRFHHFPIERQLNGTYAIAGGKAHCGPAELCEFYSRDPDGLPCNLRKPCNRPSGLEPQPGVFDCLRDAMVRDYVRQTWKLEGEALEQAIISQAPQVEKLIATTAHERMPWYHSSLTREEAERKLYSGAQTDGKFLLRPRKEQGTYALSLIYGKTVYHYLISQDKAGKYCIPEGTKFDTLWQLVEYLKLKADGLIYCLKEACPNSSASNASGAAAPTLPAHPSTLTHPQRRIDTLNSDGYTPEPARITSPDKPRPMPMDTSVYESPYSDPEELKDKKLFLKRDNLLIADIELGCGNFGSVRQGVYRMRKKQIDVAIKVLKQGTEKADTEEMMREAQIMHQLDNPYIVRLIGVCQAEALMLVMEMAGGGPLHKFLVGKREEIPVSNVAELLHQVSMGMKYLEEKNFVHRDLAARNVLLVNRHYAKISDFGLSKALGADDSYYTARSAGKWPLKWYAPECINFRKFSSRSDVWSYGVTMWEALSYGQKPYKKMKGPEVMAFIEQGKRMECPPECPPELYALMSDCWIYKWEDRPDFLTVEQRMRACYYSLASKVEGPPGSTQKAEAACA
Sequence of UniProt Q2FDS6 (whole entry, looked up): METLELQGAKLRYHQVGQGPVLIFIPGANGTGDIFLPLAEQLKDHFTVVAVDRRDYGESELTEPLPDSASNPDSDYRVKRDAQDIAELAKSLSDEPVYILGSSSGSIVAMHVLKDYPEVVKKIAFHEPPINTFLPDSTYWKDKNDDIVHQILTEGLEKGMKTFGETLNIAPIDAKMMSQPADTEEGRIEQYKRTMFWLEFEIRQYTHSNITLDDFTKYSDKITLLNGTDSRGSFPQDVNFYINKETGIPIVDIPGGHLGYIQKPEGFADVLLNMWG
Sequence of UniProt P21802 (whole entry, looked up): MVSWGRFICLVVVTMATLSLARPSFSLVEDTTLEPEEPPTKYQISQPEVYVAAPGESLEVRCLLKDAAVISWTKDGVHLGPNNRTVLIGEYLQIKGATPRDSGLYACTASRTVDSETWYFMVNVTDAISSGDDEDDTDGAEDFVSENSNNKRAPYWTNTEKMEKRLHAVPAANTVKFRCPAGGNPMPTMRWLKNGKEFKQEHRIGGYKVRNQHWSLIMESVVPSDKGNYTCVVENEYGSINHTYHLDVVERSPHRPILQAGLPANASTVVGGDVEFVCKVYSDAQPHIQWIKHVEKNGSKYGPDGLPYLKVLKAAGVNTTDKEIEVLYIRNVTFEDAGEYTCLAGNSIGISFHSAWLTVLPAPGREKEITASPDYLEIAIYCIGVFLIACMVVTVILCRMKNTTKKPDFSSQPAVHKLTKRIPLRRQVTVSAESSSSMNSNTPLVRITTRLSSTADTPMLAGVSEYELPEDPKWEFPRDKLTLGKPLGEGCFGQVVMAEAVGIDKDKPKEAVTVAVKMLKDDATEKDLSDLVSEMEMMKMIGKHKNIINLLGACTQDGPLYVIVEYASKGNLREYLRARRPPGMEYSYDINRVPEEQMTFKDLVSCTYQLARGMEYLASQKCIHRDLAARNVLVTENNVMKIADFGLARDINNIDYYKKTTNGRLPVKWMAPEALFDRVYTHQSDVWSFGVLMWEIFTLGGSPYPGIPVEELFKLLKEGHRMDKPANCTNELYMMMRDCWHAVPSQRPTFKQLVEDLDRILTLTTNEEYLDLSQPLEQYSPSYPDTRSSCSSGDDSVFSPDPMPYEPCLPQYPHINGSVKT
Sequence of UniProt P23443 (whole entry, looked up): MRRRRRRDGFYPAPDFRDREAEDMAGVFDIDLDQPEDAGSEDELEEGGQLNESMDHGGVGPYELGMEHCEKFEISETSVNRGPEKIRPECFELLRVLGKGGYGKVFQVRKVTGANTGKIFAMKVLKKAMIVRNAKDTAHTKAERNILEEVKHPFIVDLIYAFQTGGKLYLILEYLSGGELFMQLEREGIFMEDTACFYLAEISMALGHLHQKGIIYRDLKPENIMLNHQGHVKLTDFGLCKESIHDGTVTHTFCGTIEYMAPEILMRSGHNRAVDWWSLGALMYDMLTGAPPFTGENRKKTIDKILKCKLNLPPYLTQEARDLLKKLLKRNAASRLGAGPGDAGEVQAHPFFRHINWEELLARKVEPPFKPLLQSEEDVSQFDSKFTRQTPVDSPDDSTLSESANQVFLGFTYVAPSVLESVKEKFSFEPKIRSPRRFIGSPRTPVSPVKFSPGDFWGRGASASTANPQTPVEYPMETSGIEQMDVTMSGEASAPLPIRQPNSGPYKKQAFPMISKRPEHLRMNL
Sequence of UniProt Q08499 (whole entry, looked up): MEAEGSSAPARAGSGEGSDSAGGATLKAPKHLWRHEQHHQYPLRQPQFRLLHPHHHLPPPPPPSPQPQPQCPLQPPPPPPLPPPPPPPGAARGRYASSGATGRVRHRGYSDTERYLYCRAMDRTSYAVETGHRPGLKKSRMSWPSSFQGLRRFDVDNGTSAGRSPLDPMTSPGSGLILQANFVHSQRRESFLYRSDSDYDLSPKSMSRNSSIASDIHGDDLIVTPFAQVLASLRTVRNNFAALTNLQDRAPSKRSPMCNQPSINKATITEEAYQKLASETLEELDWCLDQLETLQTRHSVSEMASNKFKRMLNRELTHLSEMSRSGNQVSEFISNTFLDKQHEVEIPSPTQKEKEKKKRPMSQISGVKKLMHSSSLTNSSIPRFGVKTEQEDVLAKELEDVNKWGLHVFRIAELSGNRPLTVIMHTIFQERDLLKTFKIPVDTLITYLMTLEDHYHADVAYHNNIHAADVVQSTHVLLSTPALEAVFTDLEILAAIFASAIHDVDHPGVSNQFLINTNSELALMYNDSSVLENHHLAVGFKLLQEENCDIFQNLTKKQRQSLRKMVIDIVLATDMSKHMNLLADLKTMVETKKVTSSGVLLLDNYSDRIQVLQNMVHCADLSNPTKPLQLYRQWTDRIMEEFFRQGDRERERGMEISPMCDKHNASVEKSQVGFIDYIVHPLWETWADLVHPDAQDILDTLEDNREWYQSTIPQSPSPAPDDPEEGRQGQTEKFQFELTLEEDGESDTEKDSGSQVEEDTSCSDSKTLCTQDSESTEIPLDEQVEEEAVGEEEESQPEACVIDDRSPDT
Sequence of UniProt Q9UBF8 (whole entry, looked up): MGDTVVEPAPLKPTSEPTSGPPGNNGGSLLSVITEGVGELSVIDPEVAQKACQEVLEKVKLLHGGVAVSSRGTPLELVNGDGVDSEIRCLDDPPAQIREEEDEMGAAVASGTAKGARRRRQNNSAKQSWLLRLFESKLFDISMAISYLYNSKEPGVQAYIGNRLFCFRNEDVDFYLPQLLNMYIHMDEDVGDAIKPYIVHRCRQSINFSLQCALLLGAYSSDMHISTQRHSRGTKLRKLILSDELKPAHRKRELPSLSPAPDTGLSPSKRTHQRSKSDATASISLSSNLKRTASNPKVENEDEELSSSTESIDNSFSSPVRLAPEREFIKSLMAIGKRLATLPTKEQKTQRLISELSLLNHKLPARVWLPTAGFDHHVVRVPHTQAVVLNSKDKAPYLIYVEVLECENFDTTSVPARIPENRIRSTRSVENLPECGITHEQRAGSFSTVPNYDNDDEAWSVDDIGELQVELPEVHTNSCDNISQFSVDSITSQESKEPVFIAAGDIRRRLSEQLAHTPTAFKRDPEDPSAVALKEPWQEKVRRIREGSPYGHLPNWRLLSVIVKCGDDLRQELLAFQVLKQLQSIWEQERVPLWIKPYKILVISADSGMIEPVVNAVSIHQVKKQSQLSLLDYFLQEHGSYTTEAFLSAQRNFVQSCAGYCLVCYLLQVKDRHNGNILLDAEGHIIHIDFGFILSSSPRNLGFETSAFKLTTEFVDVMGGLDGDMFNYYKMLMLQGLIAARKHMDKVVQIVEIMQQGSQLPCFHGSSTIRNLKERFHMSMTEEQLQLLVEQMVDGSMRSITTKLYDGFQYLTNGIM
Sequence of UniProt P43140 (whole entry, looked up): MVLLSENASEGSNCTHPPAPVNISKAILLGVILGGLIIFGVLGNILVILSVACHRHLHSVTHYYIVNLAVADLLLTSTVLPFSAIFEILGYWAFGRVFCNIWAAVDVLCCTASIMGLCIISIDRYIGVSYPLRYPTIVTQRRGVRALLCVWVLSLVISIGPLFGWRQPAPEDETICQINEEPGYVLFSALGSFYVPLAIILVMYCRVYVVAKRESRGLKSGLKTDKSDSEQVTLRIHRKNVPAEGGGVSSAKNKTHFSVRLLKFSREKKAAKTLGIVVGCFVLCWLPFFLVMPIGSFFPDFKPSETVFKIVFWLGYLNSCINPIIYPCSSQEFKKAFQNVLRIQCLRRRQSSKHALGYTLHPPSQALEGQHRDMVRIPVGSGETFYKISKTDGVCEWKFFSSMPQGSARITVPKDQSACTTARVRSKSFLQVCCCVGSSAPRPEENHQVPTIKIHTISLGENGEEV
Sequence of UniProt Q99873 (whole entry, looked up): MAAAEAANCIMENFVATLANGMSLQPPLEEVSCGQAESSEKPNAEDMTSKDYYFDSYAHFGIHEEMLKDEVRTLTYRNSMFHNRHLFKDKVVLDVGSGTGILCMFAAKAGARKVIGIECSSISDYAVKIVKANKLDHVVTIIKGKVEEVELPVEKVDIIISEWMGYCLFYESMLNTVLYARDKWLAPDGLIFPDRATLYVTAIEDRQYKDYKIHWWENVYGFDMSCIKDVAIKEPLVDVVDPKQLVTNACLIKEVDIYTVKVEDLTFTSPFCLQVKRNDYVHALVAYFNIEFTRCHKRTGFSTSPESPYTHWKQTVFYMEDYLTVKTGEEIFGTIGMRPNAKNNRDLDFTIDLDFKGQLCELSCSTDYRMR

The inhibition of `CC(=O)NC[C@@H]1[C@@H](O)C[C@H]2[C@H](O)C[C@@H](CO)N12` is reported as 44.7% and 40.7% (β-N-acetylglucosaminidase; enzyme activity, inhibitor, colorimetric; Canavalia ensiformis; 8.56 nM, with: p-nitrophenyl GlcNAc substrate).
`C[C@H](NCc1ccc(-c2ccc(C(F)(F)F)cc2)cc1)C(N)=O` gave an inhibition of 0% (ZAP70 (Homo sapiens, UniProt P43403); cell-free assay, competition with immobilised ligand; 1 µM).
`CN(C)[C@H]1C[C@@]23CC[C@@]4(O2)C(=CC[C@]2(C)[C@@H](c5ccc6ccncc6c5)CC[C@H]24)C=C3[C@@H](O)[C@@H]1O` gave an inhibition of 0.2% (PI4KB (Homo sapiens, UniProt Q9UBF8); ATP probe labelling, inhibitor, KiNativ profiling; 1 µM).
The inhibition of `CCCCCCCCCNC(=O)CC(=O)c1ccccc1` is reported as 46% (lasR; reporter gene, antagonist; Escherichia coli JLD271; 10 µM, pSC11 and pJN105L plasmids, with: OdDHL 2 nM).
The inhibition of `C=CC(=O)Nc1cc(-c2nn(C3CCC(N4CCN(C(C)=O)CC4)CC3)c3ncnc(N)c23)ccc1Oc1ccccc1` (stereo not drawn) is reported as 15.7% (MAP3K20 (Homo sapiens, UniProt Q9NYL2); inhibitor, KiNativ profiling; biochemical; 2 µM).
The inhibition of `Cc1cc(-c2ccc3ccccc3c2)nnc1NCCN1CCN(C)CC1` is reported as 4% (PDE4D (Homo sapiens, UniProt Q08499); enzyme activity; 10000 nM).
`CCCCCCCCCC(=O)CC(=O)NC1CCCCC1=O` (stereo not drawn) gave an inhibition of 32% (lasR; reporter gene, antagonist; Pseudomonas aeruginosa PAO-JP2; 100 µM, plasI-LVAgfp reporter, with: OdDHL 150 nM).
For `CCn1nc(-c2ccccc2)nc2c(=O)n(C)c(=O)nc1-2`, the inhibition was 92% (USP14 (Homo sapiens, UniProt P54578); enzyme activity, inhibitor; 17 µM).
`CN(/N=C/c1ccccc1C(=O)O)c1nc(-c2ccccc2Cl)cs1` gave an inhibition of 1.05% (FGFR2 (Homo sapiens, UniProt P21802); kinase activity; 1 µM).
`O=C(CCCCCCCCCN=C=S)CC(=O)N[C@H]1CCOC1=O` has an inhibition of -72% (lasR; reporter gene, antagonist; Escherichia coli JLD271; 10 µM, pSC11 and pJN105L plasmids, with: OdDHL 2 nM).
`CC(C)[C@H]1NC(=O)C[C@H]2/C=C/CCSSC[C@@H](NC1=O)C(=O)N[C@H](Cc1cccc3ccccc13)C(=O)NCC(=O)O2` has an inhibition of 10.2% (PDGFRA (Homo sapiens, UniProt P16234, T674I); enzyme activity, inhibitor; 10 µM).
`CN1CCCN(C(=O)c2ccc(S(=O)(=O)F)cc2)c2ccccc21` gave an inhibition of 38.1% (Uncharacterized hydrolase SAUSA300_2518 (Staphylococcus aureus, UniProt Q2FDS6); enzyme activity, inhibitor; 50 µM).
The inhibition of `CN[C@@H]1[C@H](O)[C@H](NC)[C@H]2O[C@]3(O)[C@H](O[C@@H]2[C@H]1O)O[C@H](C)C[C@H]3NC(=O)Cc1ccc(Cl)cn1` is reported as 2% (Adra1a (Rattus norvegicus, UniProt P43140); ligand displacement, radioligand; 10 µM).
For `O=C(CCc1ccc(C(F)(F)F)cc1)N[C@H]1CCOC1=O`, the inhibition was 21% (lasR; reporter gene, antagonist; Pseudomonas aeruginosa PAO-JP2; 100 µM, plasI-LVAgfp reporter, with: OdDHL 150 nM).
`O=C(CN1CN(c2ccccc2)C2(CCN(C(=O)c3cnc4[nH]ncc4c3)CC2)C1=O)NCC(F)(F)F` gave an inhibition of < 50% (Ribosomal protein S6 kinase alpha-6, C-terminal kinase domain (RPS6KA6, Homo sapiens, UniProt Q9UK32); inhibitor; concentration not given).
The inhibition of `CS(C)(=O)=Nc1ccc(-c2ccc(-c3nc4cc(O[C@@H]5CO[C@H]6[C@@H]5OC[C@H]6O)[nH]c4cc3F)cc2)cc1` is reported as 18% (RPS6KB1 (Homo sapiens, UniProt P23443); enzyme activity, inhibitor; 10 µM).
`COc1ccc(F)cc1S(=O)(=O)Nc1cnc2c(c1)C(=O)NCCO2` has an inhibition of -4% (phosphodiesterase 3; enzyme activity, inhibitor; 10 µM).
For `O=C(O)c1ccccc1/C=N/Nc1nc(-c2ccccc2Cl)cs1`, the inhibition was -1.73% (TGFBR2 (Homo sapiens, UniProt P37173); enzyme activity, inhibitor; 1 µM).
With `N#Cc1ccc(N2N=C3c4ccc(C(=O)O)cc4CCC3C2C2CCCC2)cc1Cl` (stereo not drawn) the inhibition was 4% (PRMT1 (Homo sapiens, UniProt Q99873); enzyme activity, inhibitor; 10 µM).
For `N[C@H](C(=O)N1CCCC1)C1CCN(c2nccc3c(-c4ncc(Cl)cc4Cl)cccc23)CC1`, the inhibition was 2.7% (MYLK2 (Homo sapiens, UniProt Q9H1R3); kinase activity, inhibitor; 10 µM, with: ATP 1 mM).
`O=C(CCCOc1ccc(Cl)cc1)N[C@H]1CCOC1=O` gave an inhibition of 14% (lasR; reporter gene, antagonist; Escherichia coli JLD271; 10 µM, pSC11 and pJN105L plasmids, with: OdDHL 2 nM).

Repeated from above:
With `N#Cc1ccc(N2N=C3c4ccc(C(=O)O)cc4CCC3C2C2CCCC2)cc1Cl` (stereo not drawn) the inhibition was 4% (PRMT1 (Homo sapiens, UniProt Q99873); enzyme activity, inhibitor; 10 µM).
For `N[C@H](C(=O)N1CCCC1)C1CCN(c2nccc3c(-c4ncc(Cl)cc4Cl)cccc23)CC1`, the inhibition was 2.7% (MYLK2 (Homo sapiens, UniProt Q9H1R3); kinase activity, inhibitor; 10 µM, with: ATP 1 mM).
